{"data": "Experimental data collected from several papers", "note": "Numbered parts are unrelated; each lists some results of a single study."}
{"data": "Block 1", "target": "Sal-like protein 4, full length isoform A (SALL4, Homo sapiens, UniProt Q9UJQ4, residues 1-1053)", "method": "universal PBM", "molecule type": "double-stranded DNA, one strand shown", "sample": "in vitro", "tested at": "600 nM", "notes": "8-mer, flanks averaged, mean of replicates", "direction": "higher = stronger binding", "UniProt Q9UJQ4, sequence (whole entry, looked up)": "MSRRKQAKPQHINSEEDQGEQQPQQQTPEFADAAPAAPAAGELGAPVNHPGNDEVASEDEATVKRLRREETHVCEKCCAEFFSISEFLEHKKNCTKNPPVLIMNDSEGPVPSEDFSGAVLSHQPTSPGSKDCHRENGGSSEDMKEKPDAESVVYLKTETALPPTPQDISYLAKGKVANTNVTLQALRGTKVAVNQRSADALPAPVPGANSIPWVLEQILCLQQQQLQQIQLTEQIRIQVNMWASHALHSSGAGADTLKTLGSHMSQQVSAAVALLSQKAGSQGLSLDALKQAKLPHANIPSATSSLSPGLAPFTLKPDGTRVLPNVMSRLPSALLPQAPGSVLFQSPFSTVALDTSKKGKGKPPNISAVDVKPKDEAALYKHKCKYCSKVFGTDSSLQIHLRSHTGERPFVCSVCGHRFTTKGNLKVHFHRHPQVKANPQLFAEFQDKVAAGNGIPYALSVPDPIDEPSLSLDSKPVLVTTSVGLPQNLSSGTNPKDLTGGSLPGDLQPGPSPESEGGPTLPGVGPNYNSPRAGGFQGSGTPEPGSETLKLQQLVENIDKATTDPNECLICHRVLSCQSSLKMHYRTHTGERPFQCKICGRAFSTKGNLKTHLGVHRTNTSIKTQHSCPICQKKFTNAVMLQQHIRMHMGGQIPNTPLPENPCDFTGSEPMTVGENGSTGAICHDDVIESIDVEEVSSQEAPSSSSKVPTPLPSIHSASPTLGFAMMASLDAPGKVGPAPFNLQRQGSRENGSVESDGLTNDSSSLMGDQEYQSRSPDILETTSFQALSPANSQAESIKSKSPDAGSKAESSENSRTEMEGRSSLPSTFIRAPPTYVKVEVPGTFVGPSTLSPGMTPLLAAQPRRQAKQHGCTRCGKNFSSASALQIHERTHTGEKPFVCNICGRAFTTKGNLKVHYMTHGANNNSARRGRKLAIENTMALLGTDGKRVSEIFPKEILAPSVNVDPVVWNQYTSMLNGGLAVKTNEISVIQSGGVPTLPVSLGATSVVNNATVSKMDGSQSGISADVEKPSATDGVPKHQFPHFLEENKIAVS"}
{"Sequence": "GACTTCAC", "E-score": -0.259}
{"Sequence": "GGTCAGAA", "E-score": -0.0284}
{"Sequence": "AGGAAAGC", "E-score": -0.0365}
{"Sequence": "CCGTCAGA", "E-score": -0.132}
{"data": "Block 2", "target": "Histone acetyltransferase KAT6A, winged helix 1, GST fusion (KAT6A, Homo sapiens, UniProt Q92794, residues 1-85)", "method": "protein binding microarray", "molecule type": "double-stranded DNA, one strand shown", "sample": "in vitro", "tested at": "not given", "notes": "8-mer, flanks averaged, mean of 2 arrays, mostly near background", "relative to": "not given", "direction": "higher = stronger binding", "Construct (chain)": "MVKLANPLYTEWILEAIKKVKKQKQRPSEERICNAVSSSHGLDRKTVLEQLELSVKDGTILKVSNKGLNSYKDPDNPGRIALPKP"}
{"Sequence": "CGCTATAG", "E-score": 0.216}
{"Sequence": "CACGCTAG", "E-score": 0.138}
{"Sequence": "GATAACGA", "E-score": -0.227}
{"Sequence": "AAACAATA", "E-score": -0.0553}
{"Sequence": "TAGCGAAA", "E-score": 0.0144}
{"data": "Block 3", "target": "Interferon regulatory factor 7, full length, phosphomimetic (IRF7, Homo sapiens, UniProt Q92985, residues 1-503, S101K/S471D/S472D/S475D/S476D/S477D/S483D/S484D/S487D)", "method": "protein-binding microarray", "molecule type": "double-stranded DNA, one strand shown", "sample": "in vitro", "tested at": "250 nM", "notes": "60-bp whole probe", "with": "salmon DNA 0.4 mg/ml", "relative to": "random background probes", "direction": "higher = stronger binding", "Construct (chain)": "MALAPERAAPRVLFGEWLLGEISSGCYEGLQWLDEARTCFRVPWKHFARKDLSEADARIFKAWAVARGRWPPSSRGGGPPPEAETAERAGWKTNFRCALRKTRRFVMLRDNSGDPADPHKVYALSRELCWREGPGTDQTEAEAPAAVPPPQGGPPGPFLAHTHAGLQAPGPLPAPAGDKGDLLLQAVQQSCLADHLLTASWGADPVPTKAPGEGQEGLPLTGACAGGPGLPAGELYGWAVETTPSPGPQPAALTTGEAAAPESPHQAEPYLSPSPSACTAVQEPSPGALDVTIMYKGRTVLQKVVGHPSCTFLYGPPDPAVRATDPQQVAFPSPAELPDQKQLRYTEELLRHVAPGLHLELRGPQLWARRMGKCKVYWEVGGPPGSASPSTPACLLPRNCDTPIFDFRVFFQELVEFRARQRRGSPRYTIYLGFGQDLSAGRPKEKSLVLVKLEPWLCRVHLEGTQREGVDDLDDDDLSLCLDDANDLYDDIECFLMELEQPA"}
{"Sequence": "GCCTAGCACTGTTTTTTGGTTTCTGGTTTGTGCTAGGTCTTGATTCGCTTGACGCTGCTG", "log fluorescence [z-score]": 5.61}
{"Sequence": "GCCTAGCACGACGGTCTCCGTTTCGGGACGTGCTAGGTCTTGATTCGCTTGACGCTGCTG", "log fluorescence [z-score]": 1.78}
{"Sequence": "GCCTAGCACTTAGGTTCGGGTTTCGGTTAGTGCTAGGTCTTGATTCGCTTGACGCTGCTG", "log fluorescence [z-score]": 10.2}
{"Sequence": "GCCTAGCACTTAGGTATCCTAGTGCTTTAGTGCTAGGTCTTGATTCGCTTGACGCTGCTG", "log fluorescence [z-score]": -0.354}
{"data": "Further values, each from its own experiment"}
{"Molecule": "PhoQ, residues 284 288 289 292 302 303 TSTLRA", "target": "PhoP, residues 12 14 15 18 19 TPWLV (Escherichia coli, UniProt P23836)", "assay": "Sort-seq, item: YFP reporter", "test system": "E. coli", "setting": "PhoQ-PhoP variant library, with: 10 µM Mg2+", "scale": "relative to: high Mg2+ state, higher = stronger signaling", "endpoint": "fold induction", "result": 7.18}
